Measured values of several laboratories.
Compare with care: the assays were run in different laboratories.
Cell line: DU-145

| SMILES | effect on | method | concentration | time | relative to | quantity | result |
| --- | --- | --- | --- | --- | --- | --- | --- |
| CC(=O)OCC1(O)C(Nc2cccc(C(C)=O)c2)C(N)C(NC(=O)N(C)C)(C(C)OC(C)=O)C1(C)O (centres unmarked) | cell growth or viability | SRB | – | – | – | GI50 | 340 nM |
| CC(=O)OC[C@H]1O[C@@H](Sc2sc(C(=O)c3ccc(Br)cc3)c(N)c2-c2nc3ccccc3s2)[C@H](OC(C)=O)[C@@H](OC(C)=O)[C@H]1OC(C)=O | – | SRB | 10 µM | 48 h | untreated | growth | 110% |
| COc1cc(CNC(=O)C[C@H](C)CCC=C(C)C)ccc1OCc1cn(-c2ccccc2Cl)nn1 | – | SRB | 10 µM | 48 h | – | growth percent | 90.1% |
| CC/C=C\C/C=C\C/C=C\C/C=C\C/C=C\C/C=C\CCC(=O)Nc1ccn(C2OC(CO)C(O)C2(F)F)c(=O)n1 (centres unmarked) | – | NCI60 screen | – | – | – | TGI | 12500 nM |
| COc1cc(CNC(=O)C[C@H](C)CCC=C(C)C)ccc1OCc1cn(-c2ccc(C#N)cc2)nn1 | – | SRB | 10 µM | 48 h | – | growth percent | 73.7% |
| CC(=O)OC[C@H]1O[C@@H](Sc2sc(C(=O)c3ccc(C)cc3)c(N)c2-c2nc3ccccc3s2)[C@H](OC(C)=O)[C@@H](OC(C)=O)[C@H]1OC(C)=O | – | SRB | 10 µM | 48 h | untreated | growth | 107% |
| CCCC(C)NC(=O)C(Nc1ccccc1C(=O)c1ccccc1)c1cn(C)c2ccccc12 (centres unmarked) | cell growth or viability | MTT | – | 72 h | – | GI50 | 11000 nM |
| COc1cc(CNC(=O)C[C@H](C)CCC=C(C)C)ccc1OCc1cn(-c2ccc(Cl)c(Cl)c2)nn1 | – | SRB | 10 µM | 48 h | – | growth percent | 76.8% |
| C[N+]1(CC(=O)OC2CCCCCCCCCCC2)CCCCC1 | cell viability | CellTiter Blue | – | 96 h | – | ED20 | 2300 nM |
| CCC(=C(c1ccc(Cl)cc1)c1ccc(OCCCN(C)C)cc1)c1ccc(OC)cc1 | cell growth or viability | – | – | – | – | GI50 | 3480 nM |
| COc1ccc2c(c1)/C(=N\Nc1nnc3n1N=C(c1ccccc1)CS3)C(=O)N2 | cell growth or viability | SRB | 10 µM | – | – | inhibition | 50% |
| COc1cc(CNC(=O)C[C@H](C)CCC=C(C)C)ccc1OCc1cn(-c2ccccc2F)nn1 | – | SRB | 10 µM | 48 h | – | growth percent | 102% |
| O=C1Nc2ccccc2/C1=N\Nc1nnc2n1N=C(c1ccc(Cl)cc1)CS2 | cell growth or viability | SRB | 10 µM | – | – | inhibition | 23% |
| CC(=C(c1ccc(O)cc1)c1ccc(Cl)cc1)c1ccc(Cl)cc1 | cell growth or viability | – | – | – | – | GI50 | 1100 nM |

Some of these lines once more:
| SMILES | effect on | method | concentration | time | relative to | quantity | result |
| --- | --- | --- | --- | --- | --- | --- | --- |
| COc1cc(CNC(=O)C[C@H](C)CCC=C(C)C)ccc1OCc1cn(-c2ccc(C#N)cc2)nn1 | – | SRB | 10 µM | 48 h | – | growth percent | 73.7% |
| CC(=O)OC[C@H]1O[C@@H](Sc2sc(C(=O)c3ccc(C)cc3)c(N)c2-c2nc3ccccc3s2)[C@H](OC(C)=O)[C@@H](OC(C)=O)[C@H]1OC(C)=O | – | SRB | 10 µM | 48 h | untreated | growth | 107% |
